Assay results of several laboratories.
Lines come from different studies, so protocols differ. Several values in a cell are separate wells, animals, samples, runs or records. ± gives the spread as reported.

C=C(CN(C(=O)c1c(C(F)F)nn(C)c1F)C1CC1)c1ccc(Cl)cc1Cl  mortality (static acute toxicity test; zebrafish (Brachydanio rerio); 0.482 mg a.i./L, 48 h): 0%
CC(C)C[C@@H]1NC(=O)CNC(=O)[C@H](CC(N)=O)NC(=O)[C@H](CCCNC(=N)N)NC(=O)[C@H]([C@@H](C)O)NC(=O)[C@@H]2CSSC[C@@H]3NC(=O)[C@H](CCCCN)NC(=O)CNC(=O)CNC(=O)[C@H](C(C)C)NC(=O)[C@@H]4CSSC[C@H](NC(=O)[C@H]([C@@H](C)O)NC(=O)[C@H](CSSC[C@H](NC(=O)[C@H](C(C)C)NC(=O)[C@@H]5CCCN5C1=O)C(=O)NCC(=O)N[C@@H](CCC(=O)O)C(=O)N[C@@H]([C@@H](C)O)C(=O)N4)NC(=O)CNC(=O)[C@@H]1CCCN1C(=O)[C@H]([C@@H](C)O)NC(=O)[C@H](CC(N)=O)NC3=O)C(=O)N[C@@H](CO)C(=O)N[C@@H](Cc1c[nH]c3ccccc13)C(=O)N1CCC[C@H]1C(=O)N[C@@H](C(C)C)C(=O)N2  remaining peptide (HPLC; ammonium bicarbonate 0.1 M; 180 µM, 14 days, pH 9.0, 37 °C, deamidation stability): 49.8 ± 6.2%
CO[C@H]1C[C@@H]2CC[C@@H](C)[C@@](O)(O2)C(=O)C(=O)N2CCCC[C@H]2C(=O)O[C@H]([C@H](C)C[C@@H]2CC[C@@H](OC(=O)NCCOCCOCCOCCOCCOCCOCCOCCOCCC(=O)N3CCc4cc(Cn5nc(-c6ccc7oc(N)nc7c6)c6c(N)ncnc65)ccc4C3)[C@H](OC)C2)C[C@@H](O)[C@H](C)/C=C(\C)[C@@H](O)[C@@H](OC)C(=O)[C@H](C)C[C@H](C)/C=C/C=C/C=C/1C  headache incidence (patients with advanced solid tumours; intravenous, 8 mg weekly, any grade): 25%
COc1ccc(-c2c(-c3ccc(C#N)c(F)c3)nc(N3CCC(N)CC3)n(C)c2=O)cc1F  serious adverse event incidence (refers to: Gout; human patients; oral, 60 mg, dose expansion): 0%
Cc1ccc(-c2ccnc(Nc3ccc(N4CCN(C)CC4)c(C(F)(F)F)c3)n2)cc1  toxicity (zebrafish embryos; 25 µM, 5 d): 0%
CC[C@H](C)CCCCC(=O)N[C@@H](CCN)C(=O)N[C@H](C(=O)N[C@@H](CCN)C(=O)N[C@H]1CCNC(=O)[C@H]([C@@H](C)O)NC(=O)[C@H](CCN)NC(=O)[C@H](CCN)NC(=O)[C@H](CC(C)C)NC(=O)[C@@H](CC(C)C)NC(=O)[C@H](CCN)NC1=O)[C@@H](C)O  total recovery (LC-MS/MS; Transwell insert membrane; time not given, methanol elution): ~90%
CCCCCCCCCCCCCCCC(=O)N[C@@H](CCC(=O)NCCCC[C@H](NC(=O)[C@H](CC(=O)O)NC(=O)[C@H](CO)NC(=O)[C@@H](NC(=O)[C@H](Cc1ccccc1)NC(=O)[C@@H](NC(=O)CNC(=O)[C@H](CCC(N)=O)NC(=O)[C@H](CO)NC(=O)[C@@H](N)Cc1c[nH]cn1)[C@@H](C)O)[C@@H](C)O)C(=O)N[C@@H](CO)C(=O)N[C@@H](CCC(=O)O)C(=O)N[C@@H](Cc1ccc(O)cc1)C(=O)N[C@@H](CC(C)C)C(=O)N[C@@H](CC(=O)O)C(=O)N[C@@H](CO)C(=O)N[C@@H](CCC(=O)O)C(=O)N[C@@H](CCCNC(=N)N)C(=O)N[C@@H](C)C(=O)N[C@@H](CCCNC(=N)N)C(=O)N[C@@H](CC(=O)O)C(=O)N[C@@H](Cc1ccccc1)C(=O)N[C@H](C(=O)N[C@@H](C)C(=O)N[C@@H](Cc1c[nH]c2ccccc12)C(=O)N[C@@H](CC(C)C)C(=O)N[C@@H](CCC(=O)O)C(=O)N[C@@H](C)C(=O)NCC(=O)NCC(=O)O)C(C)C)C(=O)O  treatment-related adverse events (refers to: Tachycardia; humans CrCl 30 to 45 mL/min; subcutaneous, 100 µg single dose): 9.1%
CN1CC[C@@H](c2c(O)cc(O)c3c(=O)cc(-c4ccc(C(F)(F)F)cc4Cl)oc23)[C@@H]1CO  patients with adverse event (refers to: Epistaxis; relapsed or refractory haematological malignancies; oral, dose not given, grade 3 to 4, all arms): 5%
CC(C)(c1ccccc1)c1cc(-n2nc3ccccc3n2)c(O)c(C(C)(C)c2ccccc2)c1  mean daily dermal uptake (exposure assessment; human, age 21-60 years; spray sunscreen): 9.38 ng/kg body weight/day
c1ccc2cc3c(cc2c1)-c1cccc2cccc-3c12  log K(PDMS-water) (fresh water; 12 (unit not given), 20 °C, S100 sampler, 100 µm): 5.22 ± 0.01
CC(C)[C@@H]1CC[C@@H](C)C[C@@H]1O  creatinine (acute oral toxicity OECD; Swiss albino mice, serum; oral, 1000 mg/kg): 0.98 ± 0.05 mg/dL
O[C@H]1CCCN[C@@H]1CCCn1cnc2c(Cl)c(Cl)ccc21  terminal half-life (healthy volunteers, plasma; oral, 150 mg twice daily, alone): 4.47 h
CC1=C(O)C(=O)C=C2C1=CC=C1[C@@]2(C)CC[C@@]2(C)[C@@H]3C[C@](C)(C(=O)O)CC[C@]3(C)CC[C@]12C  maximal brain concentration (Sprague-Dawley rat male, neocortex; intraperitoneal, dose not given): < 3 ng/mL
COc1cc2c(Oc3ccc4[nH]c(C)cc4c3F)ccnc2cc1OCC1(N)CC1  grade 1-2 T-wave abnormality (paediatric refractory sarcoma patients; 8 mg): 0%
Clc1ccc(-c2ccc(Cl)c(Cl)c2Cl)cc1Cl  literature range factor (PDMS-water partitioning; PCB compilation; baseline: maximum over minimum K): 1.1
CC/C(=C(\c1ccccc1)c1ccc(OCCN(C)C)cc1)c1ccccc1  AUC(0-t) (CD-1 mouse, male, plasma; intraperitoneal, 10 mg/kg): 523 ng·h/mL
COc1cccc(Oc2ccccc2NC(=O)CNC(=O)c2cccc3ccccc23)c1  eosinophils (esterase-deficient SCID mice, male, blood; oral, 100 mg/kg/day, 14 days, toxicity study; baseline: white cells): 1% and 1.8% and 2.8%
N.N.[Cl][Pt][Cl]  γ-GTP (nude mice, serum; dose not given, 10 days): < 6 U/L
CC(=O)c1c(C)c2cnc(Nc3ccc(C4CCN(CCS(C)(=O)=O)CC4)cn3)nc2n(C2CCCC2)c1=O  patients with any TEAE (HR+/HER2- advanced breast cancer patients; oral, 50 mg): 100%
c1ccc2c(c1)cc1ccc3cccc4ccc2c1c34  log K(PDMS-water) (fresh water; 12 (unit not given), 20 °C): 5.21 ± 0.04
Clc1ccc(Cl)c(-c2cc(Cl)ccc2Cl)c1  body weight (Sprague Dawley rat; intraperitoneal, 10 mg/kg, 3 weeks): 173 g
O=C(O)CCCOc1ccc(F)cc1-c1cc(-c2ccccc2C(F)(F)F)n(-c2ccccc2)n1  blood chemistry (refers to: CRE; Crl:CD(SD) rats, female, blood; iv, 25 µg/kg, 14 days): 0.38 ± 0.02 mg/dL
CC(=O)c1c(C)c2cnc(Nc3ccc(N4CCNCC4)cn3)nc2n(C2CCCC2)c1=O  MTD (C57BL/6 mouse pups; intraperitoneal): 10 mg/kg/day
CCN(CCO)CCCC(C)Nc1ccnc2cc(Cl)ccc12 (stereo not shown)  white cell decrease patients (newly diagnosed glioblastoma patients; oral, 200 mg/dose, grade 1, added: radiotherapy and temozolomide): 33%
Fc1ccc([C@@H]2CCNC[C@H]2COc2ccc3c(c2)OCO3)cc1  List of Complaints score (refers to: Vomiting; healthy volunteers; oral, dose not given, given -1 h relative to LSD, added: LSD; direction not given): 0 score
CC(C)[C@H](N)C(=O)NCCCS(=O)(=O)O  AUC(0-12h) (human, APOE4 carrier Alzheimer's disease, plasma; oral, 265 mg twice daily, 2 weeks, steady state): 11100 ng·h/mL
C[C@@H](NC(=O)N1C(=O)[C@H](Cc2ccnc(N)c2)[C@H]1C(=O)O)C1CCCCC1  decreased WBC (healthy Chinese adults; continuous intravenous infusion, 1.0 mg/kg/h, 5.0 days): 0%
C[C@]1(CO)Cc2ncn(-c3ccc(C#N)c(Cl)c3)c2C(=O)O1  subjects with drug-related headache (human, Chinese; 80 mg single dose): 16.7%

A few entries again:
CC/C(=C(\c1ccccc1)c1ccc(OCCN(C)C)cc1)c1ccccc1  AUC(0-t) (CD-1 mouse, male, plasma; intraperitoneal, 10 mg/kg): 523 ng·h/mL
CC(C)[C@@H]1CC[C@@H](C)C[C@@H]1O  creatinine (acute oral toxicity OECD; Swiss albino mice, serum; oral, 1000 mg/kg): 0.98 ± 0.05 mg/dL
Cc1ccc(-c2ccnc(Nc3ccc(N4CCN(C)CC4)c(C(F)(F)F)c3)n2)cc1  toxicity (zebrafish embryos; 25 µM, 5 d): 0%
COc1cccc(Oc2ccccc2NC(=O)CNC(=O)c2cccc3ccccc23)c1  eosinophils (esterase-deficient SCID mice, male, blood; oral, 100 mg/kg/day, 14 days, toxicity study; baseline: white cells): 1% and 1.8% and 2.8%
